Measurements of several laboratories.
± gives the spread as reported.

SMILES = O=P(O)(OCCCc1ccccc1)Oc1c2c(c(OP(=O)(O)OCCCc3ccccc3)c3c1C1CC3c3cc4c(cc31)C1CC4c3ccccc31)C1CC2c2cc3c(cc21)C1CC3c2ccccc21; organism = measles virus; assay = viral infection, flow cytometry; system = A549, vaccine strain GFP; conditions = 2 days, virus pre-incubated 30 min 37 °C; IC50 = 1.6 µM
SMILES = CC(C)C1=CC(=CNC2CCCCCCC2)N=C1c1ccc[nH]1; organism = Plasmodium falciparum; assay = parasite growth; system = 7G8, chloroquine-resistant; IC50 = 1.48 µM
SMILES = CCC1(O)C([N+](=O)[O-])=NNc2nc(SC)nn21 (stereo not drawn); organism = Enterovirus B; assay = viral replication, inhibitor; system = Vero, B3; conditions = 48 h; IC50 = > 194 µM
SMILES = CN1CCN(C(=O)N[C@@H](Cc2ccccc2)C(=O)N[C@H](/C=C/S(=O)(=O)c2ccccc2)CCc2ccccc2)CC1; organism = Murine leukemia virus; assay = pseudovirus entry; system = HEK-293T, amphotropic; IC50 = > 0.1 µM
SMILES = CC(C)=CCC/C(C)=C/CC/C(C)=C/CNCCOC1C2CC3CC(C2)CC1C3 (stereo not drawn); organism = Bacillus subtilis; assay = microbial growth; IC50 = 0.8 mg/L
SMILES = C1=CC(c2ccc[nH]2)=NC1=CNC12CC3CC(CC(C3)C1)C2; organism = Plasmodium falciparum; assay = parasite growth; system = 7G8, chloroquine-resistant; IC50 = 0.235 µM
SMILES = CCC1(O)C([N+](=O)[O-])=NNc2ncnn21 (stereo not drawn); organism = Enterovirus B; assay = viral replication, inhibitor; system = Vero, B3; conditions = 48 h; IC50 = > 235 µM
SMILES = CC(C)=CCC/C(C)=C/CNCCOC1C2CC3CC(C2)CC1C3 (stereo not drawn); organism = Bacillus subtilis; assay = microbial growth; IC50 = 16 mg/L
SMILES = O=P(O)(OCc1ccc(-c2ccccc2)cc1)Oc1c2c(c(OP(=O)(O)OCc3ccc(-c4ccccc4)cc3)c3c1C1CC3c3cc4c(cc31)C1CC4c3ccccc31)C1CC2c2cc3c(cc21)C1CC3c2ccccc21; organism = measles virus; assay = viral infection, flow cytometry; system = A549, vaccine strain GFP; conditions = 2 days, virus pre-incubated 30 min 37 °C; IC50 = 8.1 µM
SMILES = CC(C)C1=CC(=CNC2CCCCCC2)N=C1c1ccc[nH]1; organism = Plasmodium falciparum; assay = parasite growth; system = Dd2, chloroquine-resistant; IC50 = 1.97 µM
SMILES = CC(=O)Nc1ccc2ccn(-c3cc(NC4CC4)n4ncc(C#N)c4n3)c2c1; organism = Murine coronavirus; assay = viral replication; IC50 = 0.04 µM
SMILES = CC1OC(OC2CC(O)C3(CO)C4C(O)CC5(C)C(C6COC(=O)C6)CCC5(O)C4CCC3(O)C2)C(O)C(O)C1O (stereo not drawn); organism = transmissible gastroenteritis virus; assay = viral replication, immunofluorescence; system = ST cells; conditions = 6 h post-infection, pretreated 1 h; IC50 = 3.13 ± 0.842 µM
SMILES = C/C=C1\NC(=O)[C@H](Cc2ccccc2)NC(=O)[C@H](C(C)C)NC(=O)[C@H](Cc2ccccc2)NC(=O)[C@H](CCC(N)=O)NC(=O)[C@H](Cc2c[nH]c3ccccc23)NC(=O)[C@H]2CSC[C@@H](C(=O)N[C@@H](CO)C(=O)O)NC(=O)[C@H](CSC[C@H]3NC(=O)[C@H]([C@@H](C)CC)NC(=O)[C@H](NC(=O)[C@H](Cc4c[nH]cn4)NC(=O)[C@@H](NC(=O)[C@@H](NC(=O)CNC(=O)[C@H](CO)NC(=O)CNC(=O)CNC(=O)[C@@H](N)CCCCN)C(C)C)[C@@H](C)CC)[C@H](C)SC[C@H](NC(=O)[C@H](CCC(=O)O)NC(=O)[C@H](Cc4c[nH]cn4)NC3=O)C(=O)N[C@@H](CC(N)=O)C(=O)N[C@@H](CCSC)C(=O)N[C@@H](CC(N)=O)C(=O)N2)NC1=O; organism = Bacillus subtilis; assay = bacterial growth; system = ATCC 6633; IC50 = 0.98 ± 0.11 µM
SMILES = O=P(O)(O)Oc1c2c(c(OP(=O)(O)O)c3c1C1CC3c3cc4c(cc31)C1CC4c3ccccc31)C1CC2c2cc3c(cc21)C1CC3c2ccccc21; organism = measles virus; assay = viral infection, flow cytometry; system = A549, vaccine strain GFP; conditions = 2 days, virus pre-incubated 30 min 37 °C; IC50 = 78.4 µM
SMILES = CCC1=CC(=CNC2CCCCCCC2)N=C1c1ccc[nH]1; organism = Plasmodium falciparum; assay = parasite growth; system = Dd2, chloroquine-resistant; IC50 = > 0.25 µM
SMILES = C#CCCCCOP(=O)(O)Oc1c2c(c(OP(=O)(O)OCCCCC#C)c3c1C1CC3c3cc4c(cc31)C1CC4c3ccccc31)C1CC2c2cc3c(cc21)C1CC3c2ccccc21; organism = measles virus; assay = viral infection, flow cytometry; system = A549, vaccine strain GFP; conditions = 2 days, virus pre-incubated 30 min 37 °C; IC50 = 41.3 µM
SMILES = C1=CC(c2ccc[nH]2)=NC1=CNC1CCCCCC1; organism = Plasmodium falciparum; assay = parasite growth; system = Dd2, chloroquine-resistant; IC50 = > 2.5 µM
SMILES = CC=CCCCCOP(=O)(O)Oc1c2c(c(OP(=O)(O)OCCCCC=CC)c3c1C1CC3c3cc4c(cc31)C1CC4c3ccccc31)C1CC2c2cc3c(cc21)C1CC3c2ccccc21; organism = measles virus; assay = viral infection, flow cytometry; system = A549, vaccine strain GFP; conditions = 2 days, virus pre-incubated 30 min 37 °C; IC50 = 5.1 µM
SMILES = C/C=C1\NC(=O)[C@H](Cc2ccccc2)NC(=O)[C@H](C(C)C)NC(=O)[C@H](Cc2ccccc2)NC(=O)[C@H](CCC(N)=O)NC(=O)[C@H](Cc2c[nH]c3ccccc23)NC(=O)[C@H]2CSC[C@@H](C(=O)N[C@@H](CO)C(=O)O)NC(=O)[C@H](CSC[C@H]3NC(=O)[C@H]([C@@H](C)CC)NC(=O)[C@H](NC(=O)[C@H](Cc4c[nH]cn4)NC(=O)[C@@H](NC(=O)[C@@H](NC(=O)CNC(=O)[C@H](CO)NC(=O)CNC(=O)CNC(=O)[C@@H](N)CCCCN)C(C)C)[C@@H](C)CC)[C@H](C)SC[C@H](NC(=O)[C@H](CCC(=O)O)NC(=O)[C@H](Cc4c[nH]cn4)NC3=O)C(=O)N[C@@H](CC(N)=O)C(=O)N[C@@H](CCSC)C(=O)N[C@@H](CC(N)=O)C(=O)N2)NC1=O; organism = Lactococcus lactis subsp. cremoris; assay = growth, OD600; system = HP ATCC 11602; conditions = 6 h, 30 °C; IC50 = 0.3 ± 0.07 µM
SMILES = COC1=CC(c2ccc[nH]2)=NC1=CNC12CC3CC(CC(C3)C1)C2; organism = Plasmodium falciparum; assay = parasite growth; system = Dd2, chloroquine-resistant; IC50 = 0.0026 µM
SMILES = CCCCCCCOP(=O)(O)Oc1c2c(c(OP(=O)(O)OCCCCCCC)c3c1C1CC3c3cc4c(cc31)C1CC4c3ccccc31)C1CC2c2cc3c(cc21)C1CC3c2ccccc21; organism = measles virus; assay = viral infection, flow cytometry; system = A549, vaccine strain GFP; conditions = 2 days, virus pre-incubated 30 min 37 °C; IC50 = 4 µM

For quick reference, copied from above:
SMILES = O=P(O)(O)Oc1c2c(c(OP(=O)(O)O)c3c1C1CC3c3cc4c(cc31)C1CC4c3ccccc31)C1CC2c2cc3c(cc21)C1CC3c2ccccc21; organism = measles virus; assay = viral infection, flow cytometry; system = A549, vaccine strain GFP; conditions = 2 days, virus pre-incubated 30 min 37 °C; IC50 = 78.4 µM
SMILES = CC(=O)Nc1ccc2ccn(-c3cc(NC4CC4)n4ncc(C#N)c4n3)c2c1; organism = Murine coronavirus; assay = viral replication; IC50 = 0.04 µM
SMILES = CN1CCN(C(=O)N[C@@H](Cc2ccccc2)C(=O)N[C@H](/C=C/S(=O)(=O)c2ccccc2)CCc2ccccc2)CC1; organism = Murine leukemia virus; assay = pseudovirus entry; system = HEK-293T, amphotropic; IC50 = > 0.1 µM
